Published values gathered from unrelated publications.
A part holds a random share of what one study measured.
UniProt P80192, sequence (whole entry, looked up): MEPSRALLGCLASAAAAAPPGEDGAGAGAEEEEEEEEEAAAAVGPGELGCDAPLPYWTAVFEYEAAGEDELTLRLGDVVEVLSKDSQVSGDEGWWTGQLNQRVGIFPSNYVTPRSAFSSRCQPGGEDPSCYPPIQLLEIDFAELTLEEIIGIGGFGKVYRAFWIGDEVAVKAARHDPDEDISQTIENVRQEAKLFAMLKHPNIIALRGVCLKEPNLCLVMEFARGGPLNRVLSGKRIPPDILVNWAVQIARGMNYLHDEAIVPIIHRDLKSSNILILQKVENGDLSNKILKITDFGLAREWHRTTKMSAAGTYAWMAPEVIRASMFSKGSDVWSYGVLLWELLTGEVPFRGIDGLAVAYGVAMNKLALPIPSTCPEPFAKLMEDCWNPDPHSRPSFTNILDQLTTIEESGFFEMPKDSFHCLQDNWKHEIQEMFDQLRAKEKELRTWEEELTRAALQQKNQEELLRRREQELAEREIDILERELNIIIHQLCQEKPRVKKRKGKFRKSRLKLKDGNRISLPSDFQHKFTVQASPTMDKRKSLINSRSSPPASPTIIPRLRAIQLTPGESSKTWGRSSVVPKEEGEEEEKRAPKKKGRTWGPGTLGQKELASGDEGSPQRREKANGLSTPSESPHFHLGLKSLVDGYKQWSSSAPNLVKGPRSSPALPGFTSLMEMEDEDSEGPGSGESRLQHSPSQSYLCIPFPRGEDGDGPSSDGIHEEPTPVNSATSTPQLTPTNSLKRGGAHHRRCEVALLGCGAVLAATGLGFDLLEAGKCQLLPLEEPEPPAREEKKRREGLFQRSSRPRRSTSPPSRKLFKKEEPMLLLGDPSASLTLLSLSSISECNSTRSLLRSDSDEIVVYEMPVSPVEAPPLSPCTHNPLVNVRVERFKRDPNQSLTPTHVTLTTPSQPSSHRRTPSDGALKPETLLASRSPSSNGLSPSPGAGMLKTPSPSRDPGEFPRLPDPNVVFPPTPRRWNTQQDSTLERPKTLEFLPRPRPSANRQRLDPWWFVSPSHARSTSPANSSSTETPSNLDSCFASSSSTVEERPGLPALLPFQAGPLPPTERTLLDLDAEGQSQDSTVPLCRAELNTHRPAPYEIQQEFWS
UniProt P49674, sequence (whole entry, looked up): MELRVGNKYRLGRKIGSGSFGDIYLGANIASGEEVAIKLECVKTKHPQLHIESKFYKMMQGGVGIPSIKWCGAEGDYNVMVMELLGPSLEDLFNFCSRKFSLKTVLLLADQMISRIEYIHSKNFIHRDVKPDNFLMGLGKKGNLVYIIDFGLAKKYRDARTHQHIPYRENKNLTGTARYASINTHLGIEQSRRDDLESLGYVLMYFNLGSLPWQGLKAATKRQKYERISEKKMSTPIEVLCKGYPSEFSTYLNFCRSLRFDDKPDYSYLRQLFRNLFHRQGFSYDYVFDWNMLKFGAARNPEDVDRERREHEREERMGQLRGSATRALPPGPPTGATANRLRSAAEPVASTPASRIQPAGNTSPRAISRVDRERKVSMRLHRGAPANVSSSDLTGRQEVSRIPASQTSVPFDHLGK
UniProt Q04759, sequence (whole entry, looked up): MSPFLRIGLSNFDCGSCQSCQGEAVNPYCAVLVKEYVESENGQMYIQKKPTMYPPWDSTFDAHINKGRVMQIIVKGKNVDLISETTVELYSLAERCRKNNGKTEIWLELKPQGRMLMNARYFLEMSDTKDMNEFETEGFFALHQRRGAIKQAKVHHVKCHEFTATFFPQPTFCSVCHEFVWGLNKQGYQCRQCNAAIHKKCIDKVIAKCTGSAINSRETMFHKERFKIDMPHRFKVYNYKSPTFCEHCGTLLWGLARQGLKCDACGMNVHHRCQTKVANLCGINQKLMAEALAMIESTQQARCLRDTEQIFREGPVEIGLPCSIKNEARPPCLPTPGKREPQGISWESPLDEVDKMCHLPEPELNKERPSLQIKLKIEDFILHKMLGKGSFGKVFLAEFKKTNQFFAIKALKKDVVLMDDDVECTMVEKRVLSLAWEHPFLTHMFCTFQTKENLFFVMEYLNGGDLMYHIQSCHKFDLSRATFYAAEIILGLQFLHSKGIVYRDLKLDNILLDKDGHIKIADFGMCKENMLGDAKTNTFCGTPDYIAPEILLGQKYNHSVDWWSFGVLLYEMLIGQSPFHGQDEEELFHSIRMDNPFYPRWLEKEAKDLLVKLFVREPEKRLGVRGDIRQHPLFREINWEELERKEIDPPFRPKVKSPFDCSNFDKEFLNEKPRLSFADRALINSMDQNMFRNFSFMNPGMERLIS
UniProt Q02779, sequence (whole entry, looked up): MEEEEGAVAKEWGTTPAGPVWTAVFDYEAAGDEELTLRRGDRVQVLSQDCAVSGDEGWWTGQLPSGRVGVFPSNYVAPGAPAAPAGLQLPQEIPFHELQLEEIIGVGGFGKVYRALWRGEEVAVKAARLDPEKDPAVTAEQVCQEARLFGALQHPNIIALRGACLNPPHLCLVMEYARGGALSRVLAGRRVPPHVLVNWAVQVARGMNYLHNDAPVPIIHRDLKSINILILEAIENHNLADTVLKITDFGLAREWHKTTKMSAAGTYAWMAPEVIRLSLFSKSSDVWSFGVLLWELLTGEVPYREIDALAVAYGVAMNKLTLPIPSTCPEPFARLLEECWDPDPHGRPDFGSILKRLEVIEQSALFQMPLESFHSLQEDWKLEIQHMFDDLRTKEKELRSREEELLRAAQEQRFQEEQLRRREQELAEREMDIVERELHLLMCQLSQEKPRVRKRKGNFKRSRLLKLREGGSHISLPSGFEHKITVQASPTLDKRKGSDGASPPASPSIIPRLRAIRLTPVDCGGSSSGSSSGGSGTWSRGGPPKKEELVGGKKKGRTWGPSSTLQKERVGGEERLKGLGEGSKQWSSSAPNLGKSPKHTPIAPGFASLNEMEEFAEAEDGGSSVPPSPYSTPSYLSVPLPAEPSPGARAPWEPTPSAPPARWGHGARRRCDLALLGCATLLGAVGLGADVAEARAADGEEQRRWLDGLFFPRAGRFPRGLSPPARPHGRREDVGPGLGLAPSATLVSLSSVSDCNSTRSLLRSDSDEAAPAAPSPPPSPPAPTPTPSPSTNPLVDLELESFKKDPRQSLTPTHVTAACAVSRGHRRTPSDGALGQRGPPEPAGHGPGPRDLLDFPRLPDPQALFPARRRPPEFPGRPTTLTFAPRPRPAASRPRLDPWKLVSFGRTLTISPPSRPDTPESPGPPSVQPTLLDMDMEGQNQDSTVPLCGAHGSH
UniProt Q9Y2U5, sequence (whole entry, looked up): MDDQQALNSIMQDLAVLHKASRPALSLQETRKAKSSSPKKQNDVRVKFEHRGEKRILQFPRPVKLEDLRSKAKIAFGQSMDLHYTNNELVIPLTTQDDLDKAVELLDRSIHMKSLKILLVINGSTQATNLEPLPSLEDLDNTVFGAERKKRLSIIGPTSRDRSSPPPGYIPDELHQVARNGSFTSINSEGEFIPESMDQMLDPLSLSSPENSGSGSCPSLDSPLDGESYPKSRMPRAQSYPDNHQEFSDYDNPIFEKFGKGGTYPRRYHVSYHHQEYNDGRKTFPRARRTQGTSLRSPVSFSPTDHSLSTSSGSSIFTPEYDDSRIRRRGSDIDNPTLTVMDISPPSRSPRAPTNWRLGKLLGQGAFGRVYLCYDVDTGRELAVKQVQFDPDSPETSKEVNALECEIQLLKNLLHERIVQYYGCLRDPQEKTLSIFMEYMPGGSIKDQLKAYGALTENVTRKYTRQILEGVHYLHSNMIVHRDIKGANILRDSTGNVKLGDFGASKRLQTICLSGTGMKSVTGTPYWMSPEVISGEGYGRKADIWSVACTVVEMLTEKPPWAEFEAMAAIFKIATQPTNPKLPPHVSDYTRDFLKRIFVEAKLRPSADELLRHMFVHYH

Set 1
Structure (SMILES): CC1=C(C#N)[C@@H](c2ccc3[nH]nc(C)c3c2)C(C#N)=C(c2ccc(Cl)cc2)N1
Read-out: cell-free assay
Technique: competition with immobilised ligand
Tested at: 1 µM
Measurement: remaining binding
MAP3K2 (Homo sapiens, UniProt Q9Y2U5): 72.2%
CSK (Homo sapiens, UniProt P41240): 100%
MAST1 (Homo sapiens, UniProt Q9Y2H9): 100%
STK26 (Homo sapiens, UniProt Q9P289): 100%
PIM2 (Homo sapiens, UniProt Q9P1W9): 100%
Tyrosine-protein kinase ABL1, phosphorylated (ABL1, Homo sapiens, UniProt P00519, F317L): 94.2%
MAPK15 (Homo sapiens, UniProt Q8TD08): 100%
PDPK1 (Homo sapiens, UniProt O15530): 98.2%
MTOR (Homo sapiens, UniProt P42345): 79.6%
CDK16 (Homo sapiens, UniProt Q00536): 88.9%
TLK1 (Homo sapiens, UniProt Q9UKI8): 100%
MAP2K5 (Homo sapiens, UniProt Q13163): 49.9%
RIOK2 (Homo sapiens, UniProt Q9BVS4): 100%
MAP3K9 (Homo sapiens, UniProt P80192): 90.4%
Ribosomal protein S6 kinase alpha-5, N-terminal kinase domain (RPS6KA5, Homo sapiens, UniProt O75582): 100%
TBK1 (Homo sapiens, UniProt Q9UHD2): 58.7%
MAP3K10 (Homo sapiens, UniProt Q02779): 100%
ERBB2 (Homo sapiens, UniProt P04626): 100%
AKT3 (Homo sapiens, UniProt Q9Y243): 82.8%

Set 2
Cell line: HaCaT
Tested at: 100 µM
Time: 36 h
Measurement: viability
COCCCC/C(=N\OCCN)c1ccc(C(F)(F)F)cc1: 4.94%
C[C@H]1C[C@@H]2[C@H]([C@@H](O)C[C@@]3(C)[C@H]2CC[C@]3(O)C(=O)CO)[C@@]2(C)C=CC(=O)C=C12: 89.7%
Cn1c([N+](=O)[O-])cnc1COC(N)=O: 94.8%
Cc1ncc(C[n+]2csc(CCO)c2C)c(N)n1: 94.6%
CC[C@H](C)[C@H](N)C1=N[C@H](C(=O)N[C@@H](CC(C)C)C(=O)N[C@H](CCC(=O)O)C(=O)N[C@H](C(=O)N[C@H]2CCCCNC(=O)[C@H](CC(N)=O)NC(=O)[C@@H](CC(=O)O)NC(=O)[C@H](Cc3cnc[nH]3)NC(=O)[C@@H](Cc3ccccc3)NC(=O)[C@H]([C@@H](C)CC)NC(=O)[C@@H](CCCN)NC2=O)[C@@H](C)CC)CS1: 86.1%

Set 3
Organism: Sarcocystis neurona
Read-out: parasite growth
Tested at: 10 µM
Time: 96 h
Setting: second screen
Baseline: untreated
Measurement: log2 fold change
COc1ccc2c3c1O[C@H]1C[C@@H](O)C=C[C@@]31CCN(C)C2: 0.41
NC(=O)N1c2ccccc2C=Cc2ccccc21: 0.48
O=c1n(CCCN2CCN(c3cccc(Cl)c3)CC2)nc2ccccn12: 0.62
CN1[C@@H]2C[C@@H](OC(=O)[C@H](CO)c3ccccc3)C[C@H]1[C@@H]1O[C@@H]12: 0.28
CC(=O)OCC(CCn1cnc2cnc(N)nc21)COC(C)=O: 0.35
O=C(O)c1cc(/N=N/c2ccc(S(=O)(=O)Nc3ccccn3)cc2)ccc1O: 0.37
CC[C@H]1OC(=O)[C@H](C)[C@@H](O[C@H]2C[C@@](C)(OC)[C@@H](O)[C@H](C)O2)[C@H](C)[C@@H](O[C@@H]2O[C@H](C)C[C@H](N(C)C)[C@H]2O)[C@](C)(OC)C[C@@H](C)C(=O)[C@H](C)[C@@H](O)[C@]1(C)O: 0.03
OCCN(CCO)c1nc(N2CCCCC2)c2nc(N(CCO)CCO)nc(N3CCCCC3)c2n1: 0.6
Cc1cc(NS(=O)(=O)c2ccc(N)cc2)no1: 0.16
C=CC1=C(C(=O)O)N2C(=O)[C@@H](NC(=O)/C(=N\OCC(=O)O)c3csc(N)n3)[C@H]2SC1: 0.11

Set 4
SMILES: NC(=O)c1ccc(-c2nc(-c3ccc4c(c3)OCCO4)c(-c3ccccn3)[nH]2)cc1
Read-out: enzyme activity
Mode: inhibitor
Tested at: 0.5 µM
Baseline: control
Measurement: remaining activity
FLT1 (Homo sapiens, UniProt P17948): 89.4%
SIK2 (Homo sapiens, UniProt Q9H0K1): 107%
CSNK1D (Homo sapiens, UniProt P48730): 40.9%
IGF1R (Homo sapiens, UniProt P08069): 90.1%
SRPK1 (Homo sapiens, UniProt Q96SB4): 95.5%
Cyclin-dependent kinase 2, with cyclin E (CDK2, Homo sapiens, UniProt P24941): 93.5%
TEC (Homo sapiens, UniProt P42680): 95.8%
CAMK1 (Homo sapiens, UniProt Q14012): 96.9%
RPS6KA3 (Homo sapiens, UniProt P51812): 88.8%
CSNK1E (Homo sapiens, UniProt P49674): 46.9%
MAP3K20 (Homo sapiens, UniProt Q9NYL2): 96.4%
SGK2 (Homo sapiens, UniProt Q9HBY8): 98.6%
PAK1 (Homo sapiens, UniProt Q13153): 95%
CLK2 (Homo sapiens, UniProt P49760): 103%
CLK1 (Homo sapiens, UniProt P49759): 105%
PRKCQ (Homo sapiens, UniProt Q04759): 89.7%
JAK1 (Homo sapiens, UniProt P23458): 98.1%
EPHA2 (Homo sapiens, UniProt P29317): 96.6%
TYRO3 (Homo sapiens, UniProt Q06418): 106%
